Measured values collected from several papers.
Numbers after ± are the reported error. Non-standard residues stand in square brackets, D forms with d. Where no end group is shown, it is not given here. No end group written: not given here. * marks the point of attachment.
PRDX6: PRDX6 1-224, Alexa 546 label (Homo sapiens, UniProt P30041)
Chain of UniProt P30041 (whole entry, looked up): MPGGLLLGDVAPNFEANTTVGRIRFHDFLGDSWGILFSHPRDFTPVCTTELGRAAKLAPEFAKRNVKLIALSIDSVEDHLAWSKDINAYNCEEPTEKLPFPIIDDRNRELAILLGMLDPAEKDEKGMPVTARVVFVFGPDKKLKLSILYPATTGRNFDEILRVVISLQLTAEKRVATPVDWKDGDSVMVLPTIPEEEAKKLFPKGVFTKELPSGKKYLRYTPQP
B1: POL30 (Saccharomyces cerevisiae, UniProt P15873); Cy3 label; sequence looked up; chain MLEAKFEEASLFKRIIDGFKDCVQLVNFQCKEDGIIAQAVDDSRVLLVSLEIGVEAFQEYRCDHPVTLGMDLTSLSKILRCGNNTDTLTLIADNTPDSIILLFEDTKKDRIAEYSLKLMDIDADFLKIEELQYDSTLSLPSSEFSKIVRDLSQLSDSINIMITKETIKFVADGDIGSGSVIIKPFVDMEHPETSIKLEMDQPVDLTFGAKYLLDIIKGSSLSDRVGIRLSSEAPALFQFDLKSGFLQFFLAPKFNDEE
B2: EIF2S1 2-183 (Homo sapiens, UniProt P05198); sequence looked up; chain PGLSCRFYQHKFPEVEDVVMVNVRSIAEMGAYVSLLEYNNIEGMILLSELSRRRIRSINKLIRIGRNECVVVIRVDKEKGYIDLSKRRVSPEEAIKCEDKFTKSKTVYSILRHVAEVLEYTKDEQLESLFQRTAWVFDDKYKRPGYGAYDAFKHAVSDPSILDSLDLNEDEREVLINNINRR
B3: gpsB (Bacillus subtilis, UniProt P0CI74); chain MLADKVKLSAKEILEKEFKTGVRGYKQEDVDKFLDMIIKDYETFHQEIEELQQENLQLKKQLEEASKKQPVQSNTTNFDILKRLSNLEKHVFGSKLYD
B4: UGT1A9 (Homo sapiens, UniProt O60656); chain GKLLVVPMDGSHWFTMRSVVEKLILRGHEVVVVMPEVSWQLGRSLNCTVKTYSTSYTLEDLDREFKAFAHAQWKAQVRSIYSLLMGSYNDIFDLFFSNCRSLFKDKKLVEYLKESSFDAVFLDPFDNCGLIVAKYFSLPSVVFARGILCHYLEEGAQCPAPLSYVPRILLGFSDAMTFKERVRNHIMHLEEHLLCHRFFKNALEIASEILQTPVTEYDLYSHTSIWLLRTDFVLDYPKPVMPNMIFIGGINCHQGKPLPMEFEAYINASGEHGIVVFSLGSMVSEIPEKKAMAIADALGKIPQTVLWRYTGTRPSNLANNTILVKWLPQNDLLGHPMTRAFITHAGSHGVYESICNGVPMVMMPLFGDQMDNAKRMETKGAGVTLNVLEMTSEDLENALKAVINDKSYKENIMRLSSLHKDRPVEPLDLAVFWVEFVMRHKGAPHLRPAAHDLTWYQYHSLDVIGFLLAVVLTVAFITFKCCAYGYRKCLGKKGRVKKAHKSKTH
B5: GABBR2 42-466 (Homo sapiens, UniProt O75899); sequence looked up; chain WARGAPRPPPSSPPLSIMGLMPLTKEVAKGSIGRGVLPAVELAIEQIRNESLLRPYFLDLRLYDTECDNAKGLKAFYDAIKYGPNHLMVFGGVCPSVTSIIAESLQGWNLVQLSFAATTPVLADKKKYPYFFRTVPSDNAVNPAILKLLKHYQWKRVGTLTQDVQRFSEVRNDLTGVLYGEDIEISDTESFSNDPCTSVKKLKGNDVRIILGQFDQNMAAKVFCCAYEENMYGSKYQWIIPGWYEPSWWEQVHTEANSSRCLRKNLLAAMEGYIGVDFEPLSSKQIKTISGKTPQQYEREYNNKRSGVGPSKFHGYAYDGIWVIAKTLQRAMETLHASSRHQRIQDFNYTDHTLGRIILNAMNETNFFGVTGQVVFRNGERMGTIKFTQFQDSREVKVGEYNAVADTLEIINDTIRFQGSEPPKD
B6: GSTP1 3-210 A114V (Homo sapiens, UniProt P09211); QSY 35 label; chain PYTVVYFPVRGRCAALRMLLADQGQSWKEEVVTVETWQEGSLKASCLYGQLPKFQDGDLTLYQSNTILRHLGRTLGLYGKDQQEAALVDMVNDGVEDLRCKYISLIYTNYEVGKDDYVKALPGQLKPFETLLSQNQGGKTFIVGDQISFADYNLLDLLLIHEVLAPGCLDAFPLLSAYVGRLSARPKLKAFLASPEYVNLPINGNGKQ
B7: BMP4 mature (UniProt P12644); sequence looked up; chain SPKHHSQRARKKNKNCRRHSLYVDFSDVGWNDWIVAPPGYQAFYCHGDCPFPLADHLNSTNHAIVQTLVNSVNSSIPKACCVPTELSAISMLYLDEYDKVVLKNYQEMVVEGCGCR
B8: GSTP1 3-210 I105V (Homo sapiens, UniProt P09211); QSY 35 label; chain PYTVVYFPVRGRCAALRMLLADQGQSWKEEVVTVETWQEGSLKASCLYGQLPKFQDGDLTLYQSNTILRHLGRTLGLYGKDQQEAALVDMVNDGVEDLRCKYVSLIYTNYEAGKDDYVKALPGQLKPFETLLSQNQGGKTFIVGDQISFADYNLLDLLLIHEVLAPGCLDAFPLLSAYVGRLSARPKLKAFLASPEYVNLPINGNGKQ
B9: KLRK1 90-216 (Homo sapiens, UniProt P26718); chain PLTESYCGPCPKNWICYKNNCYQFFDESKNWYESQASCMSQNASLLKVYSKEDQDLLKLVKSYHWMGLVHIPTNGSWQWEDGSILSPNLLTIIEMQKGDCALYASSFKGYIENCSTPNTYICMQRTV
B10: PDE6H (Homo sapiens, UniProt Q13956); sequence looked up; chain MSDNTTLPAPASNQGPTTPRKGPPKFKQRQTRQFKSKPPKKGVKGFGDDIPGMEGLGTDITVICPWEAFSHLELHELAQFGII
Chain of UniProt Q29983 (whole entry, looked up): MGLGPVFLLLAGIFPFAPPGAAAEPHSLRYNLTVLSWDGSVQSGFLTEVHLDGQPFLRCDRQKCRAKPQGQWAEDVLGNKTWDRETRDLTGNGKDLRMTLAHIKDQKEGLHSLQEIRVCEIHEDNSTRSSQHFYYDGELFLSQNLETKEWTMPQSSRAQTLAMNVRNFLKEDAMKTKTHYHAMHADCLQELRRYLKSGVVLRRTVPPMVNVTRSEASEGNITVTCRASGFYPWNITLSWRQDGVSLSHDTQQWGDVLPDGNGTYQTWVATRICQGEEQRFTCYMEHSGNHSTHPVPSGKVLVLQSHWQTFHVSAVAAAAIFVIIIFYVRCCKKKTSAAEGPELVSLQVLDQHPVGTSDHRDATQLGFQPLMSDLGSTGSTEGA
Chain of UniProt Q9Y3C6 (whole entry, looked up): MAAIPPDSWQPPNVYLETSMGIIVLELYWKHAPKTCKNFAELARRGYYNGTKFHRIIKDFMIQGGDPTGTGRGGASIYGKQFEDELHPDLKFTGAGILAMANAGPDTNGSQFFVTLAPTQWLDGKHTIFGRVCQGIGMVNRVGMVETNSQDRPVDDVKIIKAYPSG
Chain of UniProt P31266 (whole entry, looked up): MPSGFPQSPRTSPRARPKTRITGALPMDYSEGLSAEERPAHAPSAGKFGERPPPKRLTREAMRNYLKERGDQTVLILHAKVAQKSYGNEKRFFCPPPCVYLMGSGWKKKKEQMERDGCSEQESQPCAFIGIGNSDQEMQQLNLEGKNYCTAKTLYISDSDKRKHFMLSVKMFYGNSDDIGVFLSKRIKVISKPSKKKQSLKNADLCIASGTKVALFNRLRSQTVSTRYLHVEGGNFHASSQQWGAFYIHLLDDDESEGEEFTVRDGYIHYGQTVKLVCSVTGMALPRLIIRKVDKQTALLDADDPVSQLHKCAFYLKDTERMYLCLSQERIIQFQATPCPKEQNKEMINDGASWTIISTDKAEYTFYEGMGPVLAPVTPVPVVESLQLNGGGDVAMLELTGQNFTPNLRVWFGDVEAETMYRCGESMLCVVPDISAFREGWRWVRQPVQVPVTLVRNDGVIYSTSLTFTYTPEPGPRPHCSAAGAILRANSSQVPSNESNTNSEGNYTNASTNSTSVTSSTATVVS
Chain of UniProt Q9BQI3 (whole entry, unmodified, looked up): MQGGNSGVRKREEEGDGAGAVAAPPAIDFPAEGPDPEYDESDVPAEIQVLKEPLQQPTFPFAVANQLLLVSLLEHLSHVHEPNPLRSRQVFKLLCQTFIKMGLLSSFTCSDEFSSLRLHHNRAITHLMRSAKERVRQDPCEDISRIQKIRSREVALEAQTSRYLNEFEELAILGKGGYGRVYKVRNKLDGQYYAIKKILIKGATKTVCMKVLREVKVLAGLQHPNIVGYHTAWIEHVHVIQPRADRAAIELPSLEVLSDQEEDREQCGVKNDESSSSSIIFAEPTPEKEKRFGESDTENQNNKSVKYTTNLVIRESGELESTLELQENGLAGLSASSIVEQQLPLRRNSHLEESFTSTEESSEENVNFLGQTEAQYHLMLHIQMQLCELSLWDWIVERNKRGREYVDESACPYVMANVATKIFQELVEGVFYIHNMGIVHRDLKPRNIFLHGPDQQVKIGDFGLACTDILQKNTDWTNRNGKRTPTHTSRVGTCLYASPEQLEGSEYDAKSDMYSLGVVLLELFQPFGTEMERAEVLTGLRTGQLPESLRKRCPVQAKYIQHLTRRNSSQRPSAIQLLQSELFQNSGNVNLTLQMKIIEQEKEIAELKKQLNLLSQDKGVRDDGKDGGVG
Chain of UniProt P83916 (whole entry, looked up): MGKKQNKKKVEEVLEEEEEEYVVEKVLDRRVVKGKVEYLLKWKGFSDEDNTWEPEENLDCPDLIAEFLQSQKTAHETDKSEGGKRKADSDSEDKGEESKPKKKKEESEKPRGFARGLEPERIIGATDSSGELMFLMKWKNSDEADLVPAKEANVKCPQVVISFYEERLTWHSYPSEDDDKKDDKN
Chain of UniProt P55067 (whole entry, looked up): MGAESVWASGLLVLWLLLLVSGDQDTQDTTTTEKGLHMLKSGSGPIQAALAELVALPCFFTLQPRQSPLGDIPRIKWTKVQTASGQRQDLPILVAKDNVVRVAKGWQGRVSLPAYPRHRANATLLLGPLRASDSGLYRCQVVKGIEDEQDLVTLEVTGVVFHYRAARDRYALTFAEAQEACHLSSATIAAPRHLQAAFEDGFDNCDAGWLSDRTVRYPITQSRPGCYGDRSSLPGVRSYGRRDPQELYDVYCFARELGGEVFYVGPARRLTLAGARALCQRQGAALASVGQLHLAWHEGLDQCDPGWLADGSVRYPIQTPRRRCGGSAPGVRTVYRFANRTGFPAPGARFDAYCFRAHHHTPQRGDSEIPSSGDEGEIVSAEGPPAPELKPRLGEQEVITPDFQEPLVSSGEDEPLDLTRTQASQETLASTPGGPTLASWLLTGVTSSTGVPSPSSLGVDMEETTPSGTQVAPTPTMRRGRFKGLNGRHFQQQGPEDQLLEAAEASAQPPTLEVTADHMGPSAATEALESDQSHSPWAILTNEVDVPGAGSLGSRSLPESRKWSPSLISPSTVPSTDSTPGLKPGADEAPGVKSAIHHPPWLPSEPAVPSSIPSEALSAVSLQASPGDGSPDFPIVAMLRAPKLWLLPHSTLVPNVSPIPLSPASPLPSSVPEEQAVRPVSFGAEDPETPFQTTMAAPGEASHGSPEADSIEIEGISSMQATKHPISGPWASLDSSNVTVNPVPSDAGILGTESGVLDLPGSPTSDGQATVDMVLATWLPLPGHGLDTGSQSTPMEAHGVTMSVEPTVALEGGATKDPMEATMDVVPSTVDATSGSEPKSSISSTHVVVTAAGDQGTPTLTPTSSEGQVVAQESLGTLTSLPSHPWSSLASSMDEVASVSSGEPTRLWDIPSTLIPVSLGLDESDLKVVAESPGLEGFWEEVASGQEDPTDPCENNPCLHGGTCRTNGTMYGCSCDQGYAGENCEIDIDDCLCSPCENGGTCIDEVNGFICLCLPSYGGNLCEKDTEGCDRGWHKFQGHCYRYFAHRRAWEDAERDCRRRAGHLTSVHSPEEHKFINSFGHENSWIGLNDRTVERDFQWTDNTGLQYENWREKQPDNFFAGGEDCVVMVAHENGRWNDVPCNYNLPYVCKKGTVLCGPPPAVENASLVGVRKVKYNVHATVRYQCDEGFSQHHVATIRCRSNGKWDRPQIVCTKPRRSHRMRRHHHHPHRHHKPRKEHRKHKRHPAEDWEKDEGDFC
Chain of UniProt O00585 (whole entry, looked up): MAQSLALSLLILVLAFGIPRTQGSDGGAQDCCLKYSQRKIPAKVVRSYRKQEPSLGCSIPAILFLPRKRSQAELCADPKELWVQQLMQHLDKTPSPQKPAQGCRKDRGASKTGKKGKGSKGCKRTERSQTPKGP
Chain of UniProt Q99NH2 (whole entry, looked up): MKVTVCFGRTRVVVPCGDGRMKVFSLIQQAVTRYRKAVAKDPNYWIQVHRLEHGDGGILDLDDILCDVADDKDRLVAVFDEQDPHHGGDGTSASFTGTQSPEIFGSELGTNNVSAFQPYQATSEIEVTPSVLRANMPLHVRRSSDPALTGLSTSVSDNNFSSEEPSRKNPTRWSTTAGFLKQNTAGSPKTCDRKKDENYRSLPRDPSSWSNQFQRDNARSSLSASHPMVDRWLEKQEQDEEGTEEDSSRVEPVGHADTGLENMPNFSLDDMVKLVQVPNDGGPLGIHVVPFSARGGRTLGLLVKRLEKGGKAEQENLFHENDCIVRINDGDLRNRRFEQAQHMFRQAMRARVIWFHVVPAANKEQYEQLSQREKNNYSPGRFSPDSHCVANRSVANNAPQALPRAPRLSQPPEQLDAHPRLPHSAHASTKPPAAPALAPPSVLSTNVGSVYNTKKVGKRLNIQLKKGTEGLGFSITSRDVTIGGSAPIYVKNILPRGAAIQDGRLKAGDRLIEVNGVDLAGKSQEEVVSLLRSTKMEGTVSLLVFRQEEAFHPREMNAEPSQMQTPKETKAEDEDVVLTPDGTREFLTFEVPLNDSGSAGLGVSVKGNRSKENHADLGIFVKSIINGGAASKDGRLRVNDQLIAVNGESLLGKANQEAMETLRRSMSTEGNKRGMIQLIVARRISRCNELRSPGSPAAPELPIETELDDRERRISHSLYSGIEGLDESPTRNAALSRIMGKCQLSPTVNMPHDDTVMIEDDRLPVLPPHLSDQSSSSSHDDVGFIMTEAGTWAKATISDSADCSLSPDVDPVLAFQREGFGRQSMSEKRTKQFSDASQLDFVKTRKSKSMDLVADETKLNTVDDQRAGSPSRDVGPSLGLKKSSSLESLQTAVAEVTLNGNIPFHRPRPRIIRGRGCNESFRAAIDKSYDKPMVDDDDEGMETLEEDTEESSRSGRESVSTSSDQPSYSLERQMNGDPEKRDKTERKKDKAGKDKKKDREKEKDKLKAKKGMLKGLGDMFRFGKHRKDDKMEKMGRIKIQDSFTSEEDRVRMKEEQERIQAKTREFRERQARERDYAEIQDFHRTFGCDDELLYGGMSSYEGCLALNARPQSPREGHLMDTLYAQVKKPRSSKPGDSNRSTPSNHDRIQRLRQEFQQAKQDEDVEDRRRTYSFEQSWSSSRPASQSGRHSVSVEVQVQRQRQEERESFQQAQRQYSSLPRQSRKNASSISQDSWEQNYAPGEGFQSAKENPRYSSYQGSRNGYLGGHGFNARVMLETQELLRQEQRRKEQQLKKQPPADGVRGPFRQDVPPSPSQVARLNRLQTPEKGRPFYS

With `{5,6‑carboxyfluorescein}-FNATLFALVRTALRIKTEGNLE (CACNA1C 1588-1609 (Oryctolagus cuniculus); N-terminal fluorescein)` the Kd was 215 ± 38 µM (Calm1 (Rattus norvegicus, UniProt P0DP29); fluorescence polarisation; peptide; pH 7.4, 22 °C, 100 mM KCl, without Ca2+).
`B1 (POL30)` has a Kd of 0.01 µM (REV1/RAD30 binary complex, Cy5 label (Saccharomyces cerevisiae); single-molecule TIRF; 1 nM).
`B2 (EIF2S1 2-183)` gave a Kd of 0.016 µM (EIF2AK1 1-592 T488A/T493A (Homo sapiens, UniProt Q9BQI3); BLI; pH 8.0, NaCl 100 mM).
`B3 (gpsB)` gave a Kd of 48 ± 2 µM (ftsZ, FITC label (Bacillus subtilis, UniProt P17865); fluorescence titration).
`ART[Lys(Me3)]QTARKSTG (histone H3 peptide; K4me3; Lys(Me3) = C[N+](C)(C)CCCC[C@H](N)C(=O)O)` has a Kd of 17.8 µM (Rag2 414-487 (Mus musculus, UniProt P21784); ITC; peptide).
For `KWDTANNPLYKEATSTFTNITYRGT (ITGB3 764-788 (Homo sapiens, UniProt P05106); sequence looked up)`, the Kd was 10.7 ± 9.9 µM (Myom1 IgC2 domain 4 (Mus musculus); ITC; peptide; pH 6.8, 25 °C, NaCl 50 mM).
With `KTLMGNPWFQRAKMPRALDFSGHTHPVATFQPSRPESVND (IFNLR1 250-289 (Homo sapiens, UniProt Q8IU57); sequence looked up)` the Kd was 1.57 µM (JAK1 35-559 (Homo sapiens, UniProt P23458); BLI; peptide; apparent, effective Kd).
`B4 (UGT1A9)` has a Vmax of 0.0019 µmol/min/mg (COc1cccc2oc(-c3ccccc3)c(O)c(=O)c12; steady-state kinetics; pH 7.4, 37 °C).
`rhodamine-QEELII (Cdh5 779-784 (Mus musculus); reading uncertain; N-terminal rhodamine; rhodamine = not defined here)` gave a Kd of 28 µM (Pard3 581-689 (Mus musculus, UniProt Q99NH2); fluorescence polarisation; peptide; 100 nM, pH 7.4, 298 K, NaCl 100 mM).
For `B5 (GABBR2 42-466)`, the Kd was 0.0949 µM (GABBR1 30-459 (Homo sapiens, UniProt Q9UBS5-2); ITC).
`ERRDSLLVIQWNIRAFMGVKNWPWMKLYFKIK (MYH7 805-837 (Homo sapiens))` gave a Kd of < 0.5 µM (MYL2 R58Q (Homo sapiens, UniProt P10916); fluorescence titration; peptide; apparent).
For `B6 (GSTP1 3-210 A114V)`, the Kd was 0.094 µM (PRDX6; FRET; pH 7.4, apparent, together with: GSH 1 mM).
The Kd of `B7 (BMP4 mature)` is reported as 0.0785 ± 0.0058 µM (Grem2 22-168, glutathionylated (Mus musculus, UniProt O88273); SPR; pH 7.5, 25 °C, NaCl 500 mM, apparent, steady-state).
For `Biotin-FAPEFGPENPFRT-NH2 (CDC40 peptide residues 89-101 (Homo sapiens); SMILES C[C@H](NC(=O)[C@H](Cc1ccccc1)NC(=O)CCCC[C@@H]1SC[C@@H]2NC(=O)N[C@@H]21)C(=O)N1CCC[C@H]1C(=O)N[C@@H](CCC(=O)O)C(=O)N[C@@H](Cc1ccccc1)C(=O)NCC(=O)N1CCC[C@H]1C(=O)N[C@@H](CCC(=O)O)C(=O)N[C@@H](CC(N)=O)C(=O)N1CCC[C@H]1C(=O)N[C@@H](Cc1ccccc1)C(=O)N[C@@H](CCCNC(=N)N)C(=O)N[C@H](C(N)=O)[C@@H](C)O; C-terminal amide; Biotin = O=C1N[C@H]2[C@H](CS[C@H]2CCCCC(=O)*)N1)`, the Kd was 112 ± 4 µM (PPIL1 (Homo sapiens, UniProt Q9Y3C6); ITC; peptide; one-site fit).
`{5,6‑carboxyfluorescein}-ATFLIQEYFRKFKKRKEQGLVGKPSQ (CACNA1C 1650-1675 (Oryctolagus cuniculus); N-terminal fluorescein)` gave a Kd of 804 ± 103 µM (Calm1 fragment (Rattus norvegicus); fluorescence polarisation; peptide; pH 7.4, 22 °C, 100 mM KCl, without Ca2+).
The Kd of `Ncan, 125I label, chondroitin sulfate chains (Rattus norvegicus, UniProt P55067)` is reported as 0.0018 µM (Ng-CAM mature (Gallus gallus, UniProt Q03696); radioligand binding; NaCl 150 mM, saturation).
With `VKKATATTTWMVPTAQ (L3MBTL3 55-70 (Homo sapiens, UniProt Q96JM7-2); sequence looked up)` the Kd was 0.53 µM (Rbpj 53-474 (Mus musculus, UniProt P31266); ITC; peptide; pH 6.5, 25 °C, NaCl 150 mM, one site model).
The Kd of `RAD51 (Homo sapiens, UniProt Q06609)` is reported as 0.016 ± 0.0045 µM (FBH1, polyubiquitinated (Homo sapiens, UniProt Q8NFZ0); single-molecule TIRFM; apparent, together with: ATP 1 mM).
`DLAT L2 domain, lipoylated (Homo sapiens)` has a Kd of 1.3 µM (PDHA1/PDHB α2β2 heterotetramer 30-390 (Homo sapiens); ITC; pH 7.5, 20 °C, KCl 10 mM).
For `QDEVTDDYIGDNTTVDYTLFESLCSKKDVRNFKAW (CCR7 N-terminus (x))`, the Kd was 150 ± 30 µM (CCL21 (Homo sapiens, UniProt O00585); NMR titration; peptide).
`ARTKQTARKSTGGK (histone H3 2-15 (Homo sapiens, UniProt P68431); K9me3; sequence looked up)` has a Kd of 1.4 ± 0.3 µM (CBX1, C-terminal Atto532, amide (Homo sapiens, UniProt P83916); MST; peptide).
For `B8 (GSTP1 3-210 I105V)`, the Kd was 0.101 µM (PRDX6; FRET; pH 7.4, apparent, together with: GSH 1 mM).
The Kd of `B9 (KLRK1 90-216)` is reported as 0.103 µM (MICA 24-297, Alexa Fluor 647 on Cys273 (Homo sapiens, UniProt Q29983); FRET or BRET).
For `B10 (PDE6H)`, the Kd was 36.1 µM (PDE6C GAF-A/GAF-B 42-458 (Gallus gallus, UniProt P52731); BLI; pH 7.5, 26 °C, NaCl 150 mM, without cGMP).

Repeated from above:
`B3 (gpsB)` gave a Kd of 48 ± 2 µM (ftsZ, FITC label (Bacillus subtilis, UniProt P17865); fluorescence titration).
`ART[Lys(Me3)]QTARKSTG (histone H3 peptide; K4me3; Lys(Me3) = C[N+](C)(C)CCCC[C@H](N)C(=O)O)` has a Kd of 17.8 µM (Rag2 414-487 (Mus musculus, UniProt P21784); ITC; peptide).
For `KWDTANNPLYKEATSTFTNITYRGT (ITGB3 764-788 (Homo sapiens, UniProt P05106); sequence looked up)`, the Kd was 10.7 ± 9.9 µM (Myom1 IgC2 domain 4 (Mus musculus); ITC; peptide; pH 6.8, 25 °C, NaCl 50 mM).
With `KTLMGNPWFQRAKMPRALDFSGHTHPVATFQPSRPESVND (IFNLR1 250-289 (Homo sapiens, UniProt Q8IU57); sequence looked up)` the Kd was 1.57 µM (JAK1 35-559 (Homo sapiens, UniProt P23458); BLI; peptide; apparent, effective Kd).
